Published values pooled from the literature.
Parts stem from different laboratories: compare values within a part only. Changes are numbered by the printed parent chain.
UniProt P42336, sequence (whole entry, unmodified, looked up): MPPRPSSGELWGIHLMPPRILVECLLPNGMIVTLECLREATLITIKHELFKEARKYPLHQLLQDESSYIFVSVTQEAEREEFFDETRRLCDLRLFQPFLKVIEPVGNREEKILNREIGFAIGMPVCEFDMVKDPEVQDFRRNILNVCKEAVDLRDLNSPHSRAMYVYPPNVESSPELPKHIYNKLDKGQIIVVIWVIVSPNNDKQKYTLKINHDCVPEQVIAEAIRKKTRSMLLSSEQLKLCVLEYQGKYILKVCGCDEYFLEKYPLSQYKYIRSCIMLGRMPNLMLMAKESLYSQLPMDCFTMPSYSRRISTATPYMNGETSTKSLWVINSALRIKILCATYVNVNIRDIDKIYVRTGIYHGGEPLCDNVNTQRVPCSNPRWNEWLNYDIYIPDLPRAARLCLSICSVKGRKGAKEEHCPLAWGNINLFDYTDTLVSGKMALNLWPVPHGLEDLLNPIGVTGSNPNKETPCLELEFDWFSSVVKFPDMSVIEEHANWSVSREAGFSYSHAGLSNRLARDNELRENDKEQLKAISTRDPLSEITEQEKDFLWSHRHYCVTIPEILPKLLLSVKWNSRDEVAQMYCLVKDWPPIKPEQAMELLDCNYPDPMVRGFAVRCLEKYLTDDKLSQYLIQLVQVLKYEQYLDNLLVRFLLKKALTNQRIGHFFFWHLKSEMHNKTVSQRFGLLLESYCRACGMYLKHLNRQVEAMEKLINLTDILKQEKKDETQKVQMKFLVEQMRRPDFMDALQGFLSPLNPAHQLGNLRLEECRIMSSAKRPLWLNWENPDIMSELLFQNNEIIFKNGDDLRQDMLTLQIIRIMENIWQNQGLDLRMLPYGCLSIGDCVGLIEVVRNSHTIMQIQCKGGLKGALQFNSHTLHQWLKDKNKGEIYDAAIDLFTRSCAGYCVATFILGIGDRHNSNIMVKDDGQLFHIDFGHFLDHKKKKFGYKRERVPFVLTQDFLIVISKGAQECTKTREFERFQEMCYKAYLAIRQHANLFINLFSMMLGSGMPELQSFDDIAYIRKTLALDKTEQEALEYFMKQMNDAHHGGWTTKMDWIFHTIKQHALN
UniProt Q9P1W9, sequence (whole entry, looked up): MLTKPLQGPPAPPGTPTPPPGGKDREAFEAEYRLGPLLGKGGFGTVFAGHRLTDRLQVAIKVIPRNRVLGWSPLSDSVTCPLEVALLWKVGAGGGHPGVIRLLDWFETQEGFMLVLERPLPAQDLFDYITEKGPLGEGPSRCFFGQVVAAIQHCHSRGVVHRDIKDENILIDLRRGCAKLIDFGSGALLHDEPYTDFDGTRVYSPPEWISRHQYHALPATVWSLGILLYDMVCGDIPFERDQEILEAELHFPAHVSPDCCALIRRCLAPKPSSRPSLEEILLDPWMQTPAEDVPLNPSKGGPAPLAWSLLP
UniProt Q9H4B4, sequence (whole entry, looked up): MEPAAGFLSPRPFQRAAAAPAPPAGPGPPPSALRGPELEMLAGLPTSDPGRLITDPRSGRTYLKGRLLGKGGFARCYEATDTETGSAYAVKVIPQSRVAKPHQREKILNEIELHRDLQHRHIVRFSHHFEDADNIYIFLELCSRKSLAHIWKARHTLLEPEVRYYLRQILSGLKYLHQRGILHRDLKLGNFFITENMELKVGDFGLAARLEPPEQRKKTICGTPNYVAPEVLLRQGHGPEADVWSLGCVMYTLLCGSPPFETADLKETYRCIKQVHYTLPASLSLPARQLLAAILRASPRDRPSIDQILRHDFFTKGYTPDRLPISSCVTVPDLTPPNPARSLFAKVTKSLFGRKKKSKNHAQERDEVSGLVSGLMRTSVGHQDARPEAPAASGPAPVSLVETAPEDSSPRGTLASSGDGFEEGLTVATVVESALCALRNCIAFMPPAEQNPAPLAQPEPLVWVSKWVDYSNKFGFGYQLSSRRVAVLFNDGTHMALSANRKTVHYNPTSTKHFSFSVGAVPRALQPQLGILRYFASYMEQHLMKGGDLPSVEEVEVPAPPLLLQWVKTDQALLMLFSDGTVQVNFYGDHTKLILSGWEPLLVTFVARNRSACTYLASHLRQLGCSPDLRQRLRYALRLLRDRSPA
UniProt Q15139, sequence (whole entry, looked up): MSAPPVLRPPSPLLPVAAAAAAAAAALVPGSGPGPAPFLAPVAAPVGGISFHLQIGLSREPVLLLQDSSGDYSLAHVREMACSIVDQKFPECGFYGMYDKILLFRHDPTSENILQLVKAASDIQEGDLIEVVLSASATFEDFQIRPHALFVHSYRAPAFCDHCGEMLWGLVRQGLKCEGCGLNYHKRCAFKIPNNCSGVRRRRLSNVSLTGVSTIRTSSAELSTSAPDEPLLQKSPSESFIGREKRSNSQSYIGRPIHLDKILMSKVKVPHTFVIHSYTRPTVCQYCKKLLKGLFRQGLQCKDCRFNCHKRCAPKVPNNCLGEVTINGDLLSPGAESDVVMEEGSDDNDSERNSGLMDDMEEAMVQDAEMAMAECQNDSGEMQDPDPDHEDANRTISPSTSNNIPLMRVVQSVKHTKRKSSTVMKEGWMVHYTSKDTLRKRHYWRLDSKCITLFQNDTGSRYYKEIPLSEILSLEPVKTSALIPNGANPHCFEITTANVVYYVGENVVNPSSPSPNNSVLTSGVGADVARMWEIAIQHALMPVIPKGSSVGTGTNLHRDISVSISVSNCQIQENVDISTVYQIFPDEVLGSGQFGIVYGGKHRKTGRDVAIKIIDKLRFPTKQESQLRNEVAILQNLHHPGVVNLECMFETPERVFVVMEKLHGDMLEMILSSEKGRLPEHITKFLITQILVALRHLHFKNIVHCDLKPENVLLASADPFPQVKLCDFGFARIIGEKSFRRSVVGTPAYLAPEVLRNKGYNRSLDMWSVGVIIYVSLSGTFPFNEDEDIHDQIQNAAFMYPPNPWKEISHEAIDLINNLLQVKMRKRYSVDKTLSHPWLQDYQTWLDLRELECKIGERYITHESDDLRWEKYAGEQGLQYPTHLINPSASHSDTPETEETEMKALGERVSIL

Study 1
Target: RING finger protein unkempt homolog, zinc fingers 1-6, GST-SBP tag (UNK, Homo sapiens, UniProt Q9C0B0, residues 30-357)
UniProt Q9C0B0, sequence (30-357, looked up): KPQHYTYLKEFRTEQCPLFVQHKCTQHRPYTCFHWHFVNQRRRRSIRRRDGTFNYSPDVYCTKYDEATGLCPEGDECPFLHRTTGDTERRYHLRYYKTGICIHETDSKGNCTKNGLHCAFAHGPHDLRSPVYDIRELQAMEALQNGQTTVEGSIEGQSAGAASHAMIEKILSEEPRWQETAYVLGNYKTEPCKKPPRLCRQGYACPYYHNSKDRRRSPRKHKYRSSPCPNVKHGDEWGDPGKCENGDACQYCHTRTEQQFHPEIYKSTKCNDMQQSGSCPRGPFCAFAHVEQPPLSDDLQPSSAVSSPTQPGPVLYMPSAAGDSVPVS
Technique: RNA Bind-n-Seq
Form: RNA
Medium: in vitro
Tested at: not given
Setting: RNA with constant flanks, human and mouse sites, ends assumed
Relative to: input RNA pool
Direction: higher = stronger binding
With `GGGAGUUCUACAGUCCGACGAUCAACUUCGUGCAUCGGUUUCCCUUUGUAGCUGUUUCAAUUGGCUUCCUUGUGAAUAAAGAGAUGGAGUUUGGAAUUGUGUACAGCUGUGUGGAAGAUAAGAUGUACACCGGCAGGAAAGGGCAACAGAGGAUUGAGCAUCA` the bound/input enrichment was 0.371 ratio.
`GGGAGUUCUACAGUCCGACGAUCCAGUACUAUGAUUUGCUCCGUCUGUUUGAAUACGGUGGCUUUCCUCCAGAGAGCAACUAUUUGUUUCUCGGGGACUAUGUGGACAGGGGCAAGCAGUCCCUGGAGACAAUCUGCCUCUUGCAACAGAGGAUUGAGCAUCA` gave a bound/input enrichment of 0.208 ratio.
`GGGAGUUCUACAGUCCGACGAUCCAGAAUGGAGCUAUGGACGUUAAUUUGACCGUCUACUCCAAUCCCCGCCAAGAGACUGGCAUAGCUGGACAUCCAACAUACCAAUUUUCUGCUAAUACAGGUCCUGCACAUUACAUGACUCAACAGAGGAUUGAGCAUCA` has a bound/input enrichment of 0.253 ratio.
The bound/input enrichment of `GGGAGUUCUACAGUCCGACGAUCAGCGGUGGGAACCACAUUGGCGGGUCUGGGUUGGGGUUAAAGGGAGAUUGGAGAUUUGAUUUAGGACCACAAAAAGGCUUUGUGGCUAACAUGGCGUGGCCGUGCAUCACAAGGGCCUGCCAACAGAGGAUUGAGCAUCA` is reported as 0.604 ratio.
`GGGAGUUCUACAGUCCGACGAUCUCACUAGGAAGUAUGAUGCAGUCACCAGGAGGUGUGAUGCAGUCACUAAGAAGUGUAAUGCAGUCAUCAGGAGGUGUGACACAGUCACUAAGAAGUGUGAUGCAGUCACCAGGAGGUGUGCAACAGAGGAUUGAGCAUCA` gave a bound/input enrichment of 0.679 ratio.
`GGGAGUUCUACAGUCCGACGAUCUCGGUCUUCAAUAACAAGAACAGUGGCUUCUGGCACAGCAGCCUCAUUGACCGGAACCUCAUAGAUUAUUUUGUCCCCUUCCUGCCCCUGGAGUACAAGCACCUGAAAAUGUGCAUCAGACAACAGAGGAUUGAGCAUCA` has a bound/input enrichment of 1.86 ratio.
`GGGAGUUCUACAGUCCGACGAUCAAAACUUUGCAAGAAGAGAUUGAUGCCUUAGAGUCCAGAGUGGCGUCCAUCCAGCGGGUGUUAGCCGACCUGAAGGUGCAGCUAUACGCGAAAUUUGGCAGCAACAUAAACCUCGAGGCACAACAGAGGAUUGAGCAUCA` has a bound/input enrichment of 0.136 ratio.
For `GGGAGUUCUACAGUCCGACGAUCGGAAGGCGCUGUUUGAAGCUUGUCGGUCUUUGAAGUCUGGAAGACGUCUGCAGAGGACCCUUUUGGCAGCACAACUGUUACUCUAGGGAGUUGGUGGAGAUAUUUUUUUUUCUUAAGAGACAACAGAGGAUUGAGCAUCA`, the bound/input enrichment was 0.393 ratio.

Study 2
SMILES: CCCCN(CCCC)C(=O)CN1C[C@@H](c2cc(OC)c3c(c2)OCO3)[C@H](C(=O)O)[C@H]1CC(C)(C)CCC
Read-out: cell-free assay
Technique: competition with immobilised ligand
Tested at: 1 µM
It gave 62.4% for remaining binding (PIK3CA (Homo sapiens, UniProt P42336, H1047L)).
It gave 100% for remaining binding (STK39 (Homo sapiens, UniProt Q9UEW8)).
It gave 93.5% for remaining binding (PLK3 (Homo sapiens, UniProt Q9H4B4)).
PIM2 (Homo sapiens, UniProt Q9P1W9) — remaining binding: 96.3%.
The remaining binding was 100% (PRKD1 (Homo sapiens, UniProt Q15139)).

Study 3
Target: Interleukin-1 receptor-associated kinase 1 (IRAK1, Homo sapiens, UniProt P51617)
UniProt P51617, sequence (whole entry, looked up): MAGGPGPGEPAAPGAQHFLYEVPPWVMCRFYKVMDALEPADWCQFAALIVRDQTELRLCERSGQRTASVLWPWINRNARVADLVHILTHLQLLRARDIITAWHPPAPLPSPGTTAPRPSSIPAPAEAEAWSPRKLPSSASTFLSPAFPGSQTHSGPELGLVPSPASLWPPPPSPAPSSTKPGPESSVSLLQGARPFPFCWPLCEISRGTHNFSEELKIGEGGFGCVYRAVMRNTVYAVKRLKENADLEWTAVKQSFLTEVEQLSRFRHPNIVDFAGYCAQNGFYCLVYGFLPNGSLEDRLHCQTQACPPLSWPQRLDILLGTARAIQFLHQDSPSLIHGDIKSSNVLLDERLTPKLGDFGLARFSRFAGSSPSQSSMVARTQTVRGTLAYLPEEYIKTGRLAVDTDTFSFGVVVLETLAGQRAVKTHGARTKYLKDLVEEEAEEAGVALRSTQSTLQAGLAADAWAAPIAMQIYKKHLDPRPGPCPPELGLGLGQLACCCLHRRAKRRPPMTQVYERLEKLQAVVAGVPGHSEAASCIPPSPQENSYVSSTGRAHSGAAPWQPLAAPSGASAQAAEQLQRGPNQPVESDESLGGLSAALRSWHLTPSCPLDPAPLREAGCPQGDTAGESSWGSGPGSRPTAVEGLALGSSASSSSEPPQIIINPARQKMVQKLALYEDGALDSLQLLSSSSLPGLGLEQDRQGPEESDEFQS
Read-out: enzyme activity
Mode: inhibitor
Tested at: 0.5 µM
Relative to: control
The remaining activity of `Nc1ccc2ncnc(NCCc3ccc(Oc4ccccc4)cc3)c2c1` is reported as 107%.
For `Cc1ccc(Nc2nccc(N(C)c3ccc4c(C)n(C)nc4c3)n2)cc1S(N)(=O)=O`, the remaining activity was 97%.
`COc1ccc(C(=O)Nc2sc3c(c2C(N)=O)CCCC3)cc1OC` has a remaining activity of 79.8%.
`O=c1c2ccccc2[nH]c(=S)n1CCN1CCC(=C(c2ccc(F)cc2)c2ccc(F)cc2)CC1` gave a remaining activity of 106%.
`NCCNc1ncc(C(N)=O)c(Nc2cccc(C(F)(F)F)c2)n1` has a remaining activity of 109%.
The remaining activity of `Cn1c2ccccc2c2c3c(c4c5ccccc5n(CCC#N)c4c21)CNC3=O` is reported as 6.43%.
The remaining activity of `C#Cc1cccc(Nc2ncnc3cc(OCCOC)c(OCCOC)cc23)c1` is reported as 95.9%.
`CNC(=O)c1cc(Oc2ccc(NC(=O)Nc3ccc(Cl)c(C(F)(F)F)c3)cc2)ccn1` has a remaining activity of 101%.
`CCOC(=O)c1c(C)[nH]c(/C=C2\C(=O)Nc3ccccc32)c1C` has a remaining activity of 111%.
With `O=C(CCCc1ccc(-c2ccccc2F)cc1)Nc1ccc(O)cc1` the remaining activity was 100%.
With `O=C(O)c1ccc2c3c1cccc3c(=O)n1c3ccccc3nc21` the remaining activity was 61.1%.
`OCC(O)CCON=C1C(c2c(O)[nH]c3ccccc23)=Nc2ccccc21` (stereo not drawn) gave a remaining activity of 34.5%.
For `COc1cc2nccc(Oc3ccc(NC(=S)NC(=O)c4ccccc4C)cc3)c2cc1OC`, the remaining activity was 99.6%.
`Cc1nc(-c2ccccc2)c(-c2ccncc2)o1` gave a remaining activity of 124%.
`Cn1sc(=O)n(Cc2ccccc2)c1=O` has a remaining activity of 116%.

Study 4
Target: NFIL3, bZIP domain (human)
Technique: DHFR protein complementation
Medium: yeast
Setting: single substitutions, most at no-binding floor
Relative to: wild-type JUN-FOS pair
Direction: higher = stronger binding
Parent: JUN, bZIP domain (human); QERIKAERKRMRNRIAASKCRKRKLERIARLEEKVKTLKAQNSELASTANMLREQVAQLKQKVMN; partner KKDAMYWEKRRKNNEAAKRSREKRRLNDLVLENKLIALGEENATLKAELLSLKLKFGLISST
For `V35L`, the binding fitness was -1.25 natural log.
The binding fitness of `L52T` is reported as -1.55 natural log.
`N42H` gave a binding fitness of -1.43 natural log.
`A49K` has a binding fitness of -1.45 natural log.
`A57K` gave a binding fitness of -1.45 natural log.
The binding fitness of `A46Y` is reported as -1.01 natural log.
For `S43Y`, the binding fitness was -1.46 natural log.
With `I28T` the binding fitness was -1.34 natural log.

A few entries again (study 3):
`CNC(=O)c1cc(Oc2ccc(NC(=O)Nc3ccc(Cl)c(C(F)(F)F)c3)cc2)ccn1` has a remaining activity of 101%.
`CCOC(=O)c1c(C)[nH]c(/C=C2\C(=O)Nc3ccccc32)c1C` has a remaining activity of 111%.
With `O=C(CCCc1ccc(-c2ccccc2F)cc1)Nc1ccc(O)cc1` the remaining activity was 100%.
With `O=C(O)c1ccc2c3c1cccc3c(=O)n1c3ccccc3nc21` the remaining activity was 61.1%.
